Measured values of several laboratories.
Each numbered part is a random draw from the data of one study; scales do not carry over between parts. Positions count from the first letter of the parent shown.

Sample 1 — target: CREM, bZIP domain (human); method: DHFR protein complementation; matrix: yeast; reference: wild-type JUN-FOS pair; direction: higher = stronger binding; measurement: binding fitness
Notes: single substitutions, most at no-binding floor
Starting sequence: JUN, bZIP domain (human); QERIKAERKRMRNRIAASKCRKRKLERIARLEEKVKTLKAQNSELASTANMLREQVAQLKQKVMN; partner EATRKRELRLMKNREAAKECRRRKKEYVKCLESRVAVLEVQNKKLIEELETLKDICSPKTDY
Substitution = K34A; value = -1.48 natural log
Substitution = A57R; value = -1.5 natural log
Substitution = A49M; value = -1.39 natural log
Substitution = N42H; value = -1.4 natural log
Substitution = E32P; value = -1.52 natural log
Substitution = E33Q; value = -1.43 natural log
Substitution = I28F; value = -1.24 natural log
Substitution = E44L; value = -1.43 natural log
Substitution = R30H; value = -1.36 natural log
Substitution = N42Q; value = -1.42 natural log
Substitution = E44R; value = -1.42 natural log
Substitution = I28H; value = -1.39 natural log
Substitution = T37K; value = -1.24 natural log
Substitution = V35H; value = -1.55 natural log
Substitution = M51T; value = -1.39 natural log
Substitution = K34T; value = -1.37 natural log
Substitution = L52H; value = -1.54 natural log
Substitution = K36H; value = -1.43 natural log
Substitution = L38G; value = -1.51 natural log
Substitution = L38Q; value = -1.48 natural log
Substitution = A40G; value = -1.58 natural log
Substitution = L38W; value = -1.55 natural log
Substitution = S43C; value = -1.53 natural log
Substitution = L38V; value = -1.51 natural log
Substitution = S47Y; value = -1.54 natural log

Sample 2 — method: RNA Bind-n-Seq; molecule type: RNA; matrix: in vitro; concentration: 200 nM; notes: whole 134-nt RNA, ends assumed; together with: 150 mM LiCl; reference: input library; direction: higher = stronger binding; measurement: log2 enrichment; all molecules: 7-deaza-guanosine replaces G
Target: Ras GTPase-activating protein-binding protein 1, full length (G3BP1, Homo sapiens, UniProt Q13283)
Chain of UniProt Q13283 (whole entry, looked up): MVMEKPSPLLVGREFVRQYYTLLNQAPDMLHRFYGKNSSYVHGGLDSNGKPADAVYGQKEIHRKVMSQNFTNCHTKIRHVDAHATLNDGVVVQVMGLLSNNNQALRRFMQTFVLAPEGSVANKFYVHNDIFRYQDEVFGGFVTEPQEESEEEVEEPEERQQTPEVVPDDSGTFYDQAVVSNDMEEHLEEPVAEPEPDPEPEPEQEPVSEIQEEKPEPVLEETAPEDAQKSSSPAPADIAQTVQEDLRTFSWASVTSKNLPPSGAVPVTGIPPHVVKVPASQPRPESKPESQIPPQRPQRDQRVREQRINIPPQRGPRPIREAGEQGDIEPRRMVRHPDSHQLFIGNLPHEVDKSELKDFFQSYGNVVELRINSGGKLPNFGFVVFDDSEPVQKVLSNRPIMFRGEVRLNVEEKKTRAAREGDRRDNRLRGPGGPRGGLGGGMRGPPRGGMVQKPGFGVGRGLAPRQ
Sequence = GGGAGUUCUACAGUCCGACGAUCGCAGGAAGUAAAAACAAAUGGAAAUGCUUCGGAUAGUGGCAGGGGUGGGGGUUGCUAAGGAACGGGUGGGAUGGGAGUGGGUAAAGAGUUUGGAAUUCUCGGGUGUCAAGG; value = 0.305
Sequence = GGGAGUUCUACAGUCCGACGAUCCCUGUGCUACACAUCGUAUGUACCGAAUCGGGAAAAAAAGGAAAAAAAGGGAAAAAAAGGGAAAGUAUUAUGUUACGCCGUUCGGAUCUGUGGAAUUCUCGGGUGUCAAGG; value = 0.079
Sequence = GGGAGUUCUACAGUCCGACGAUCCUCAAGUCCUGUGCUACACAUCGUAUGUACCGAAUCGGGUUUGGGUGGGUGGGAAAGUAUUAUGUUACGCCGUUCGGAUCUGCACUUCCAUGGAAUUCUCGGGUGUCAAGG; value = -0.0785
Sequence = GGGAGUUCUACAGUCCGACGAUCUGUGCUACACAUCGUAUGUACCGAAUCGGGGCCCCCCCGGGCCCCCCCGGGGCCCCCCCGGGGAAAGUAUUAUGUUACGCCGUUCGGAUCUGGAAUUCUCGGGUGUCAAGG; value = -0.084
Sequence = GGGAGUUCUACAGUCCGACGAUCUGGGAGGUGGAUUUUGUUUAUUUUUUUAGCUCAUUUCAAGGGGUGGGAAUUUUUUUUUAAUAUGUGUCAUGAAUAAAGUUGUUUUUGAAAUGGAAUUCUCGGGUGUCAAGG; value = 0.542
Sequence = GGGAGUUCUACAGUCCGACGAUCGUCCUGUGCUACACAUCGUAUGUACCGAAUCGGUUUUUUGGUUUUUUGGUUUUUUGGGGAAAGUAUUAUGUUACGCCGUUCGGAUCUGCAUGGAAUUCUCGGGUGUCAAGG; value = -1.17
Sequence = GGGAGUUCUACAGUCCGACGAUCUGGGAGGUGGAUUUUGUUUAUCUUUUUAGCUCAUUUCCAGGGGUGGGAAUUUUUUUUUAAUAUGUGUCAUGAAUAAAGUUGUUUUUGAAAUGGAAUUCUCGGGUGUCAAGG; value = -0.304
Sequence = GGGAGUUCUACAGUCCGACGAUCCACAGACAACACGCACCCACACAGACACAGAGGGAAGGGGUUGGGAUGGGGACAGGGUGCACAGCAGGGCGGGGUUGGACCCCAGCCCCUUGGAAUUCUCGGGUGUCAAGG; value = 0.878
Sequence = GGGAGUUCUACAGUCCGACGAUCAGUCCUGUGCUACACAUCGUAUGUACCGAAUCGGAAAAAAAGGAAAAAGGAAAAAGGAAAGUAUUAUGUUACGCCGUUCGGAUCUGCACUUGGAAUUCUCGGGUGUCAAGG; value = -1.53
Sequence = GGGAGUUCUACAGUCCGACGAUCUCAAGUCCUGUGCUACACAUCGUAUGUACCGAAUCGGAAAAAGGAAAAAGGUGGAAAGUAUUAUGUUACGCCGUUCGGAUCUGCACUUCCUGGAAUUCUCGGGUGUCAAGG; value = -0.414
Sequence = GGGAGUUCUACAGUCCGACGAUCCACAGACACCACGCACCCACACAGACACAGAGGGAAGGGGUUGGGAUGGGGACAGGGUGCACAGCAGGGCGGGGUAGGACCCCAGCCCCUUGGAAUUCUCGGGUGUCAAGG; value = 0.128

Sample 3 — method: universal PBM; molecule type: double-stranded DNA, one strand shown; matrix: in vitro; concentration: not given; direction: higher = stronger binding; measurement: E-score
Target: Sal-like protein 4, full length isoform B (SALL4, Homo sapiens, UniProt Q9UJQ4-2, residues 1-616)
Notes: 8-mer, flanks averaged, mean of replicates
Sequence = CTCATCAG; value = 0.0134
Sequence = CCAACTCC; value = -0.152
Sequence = CGCGGGGC; value = -0.343
Sequence = CCGTAATA; value = 0.243
Sequence = CACACCCC; value = -0.125
Sequence = AGCTGACA; value = -0.0774
Sequence = ATGACTGG; value = -0.0781
Sequence = ACGCACTA; value = -0.0137
Sequence = GAAAGGGC; value = -0.0755
Sequence = ACTGGCTG; value = -0.273
Sequence = AAAGCCTT; value = -0.164
Sequence = ACGCTGAG; value = -0.199
Sequence = GGTTTTGA; value = 0.0238
Sequence = AATCGAGT; value = -0.0169
Sequence = AATGTCGT; value = 0.126
Sequence = CAACCCTA; value = -0.115
Sequence = ATGAACCC; value = -0.0893
Sequence = GCGTGGTA; value = -0.0589
Sequence = AAGCACGA; value = 0.0153
Sequence = CATCATTA; value = 0.282
Sequence = AACCGCGC; value = -0.204
Sequence = ACGGAGGC; value = -0.351
Sequence = CTCCAGTC; value = -0.122
Sequence = GTACCGTA; value = -0.064

Sample 4 — method: RNA Bind-n-Seq; molecule type: RNA; matrix: in vitro; concentration: 365 nM; reference: no-protein control; direction: higher = stronger binding; measurement: RBNS enrichment (R)
Target: RNA binding protein fox-1 homolog 2, RRM domain, GST-SBP tag (RBFOX2, Homo sapiens, UniProt O43251-10, residues 100-194)
Notes: natural RNA segment, single round, ends assumed
Construct (chain): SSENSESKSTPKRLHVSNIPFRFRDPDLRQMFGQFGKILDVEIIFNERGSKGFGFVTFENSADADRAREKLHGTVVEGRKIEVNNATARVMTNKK
Sequence = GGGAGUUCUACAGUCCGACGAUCGGAGACAUGAGAGGGCAGAAUCCUGCCCCCAGCCCUGGGCUGCUUUCGGGGGUCGGGGGAGGGCUCUUCAGAUGCCUCCAUAGGACCAAGUCCCCAUCAUUGCCGGGAGUUGGAAUUCUCGGGUGCCAA; value = 0.824
Sequence = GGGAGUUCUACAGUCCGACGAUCUGAGAACUGCUGCUCUAAGGCCUUCUGUAGAAGUCCAUUCCUAUCACAGUAAGGCUGAACUCUGAAAACUAUCCAUUAGAGCUCUGGUUCUGGGUGGGGAUAAGGAUGGGUGGAAUUCUCGGGUGCCAA; value = 0.425
Sequence = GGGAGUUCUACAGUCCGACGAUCCUACCAUUUAUAAGGAGUUUGAAAAGAGGAAGAUGCUUGAAGGACACAACAAGAAAUUCUUUAAAGCUGUGGAAGAAAUCUAGACGUGAGGGCCAGUCCAGGCUGUCAGCUGGAAUUCUCGGGUGCCAA; value = 0.592
Sequence = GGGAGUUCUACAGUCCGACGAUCUGCGUGAGUGGUGUGCAGGCGCGGUUCCUUACGCCCCAUGUGUGCUGUGUGUGUCCAGGCACGGUUCCUUACGCCCCAUGUGUGCUGUGUGUGUCCUGCCUGUAUAUGUGUGGAAUUCUCGGGUGCCAA; value = 0.941
Sequence = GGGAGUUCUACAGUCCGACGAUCUAUAAUUUUCAUAUAGCCGUAUAAGGAUUGAUUUACCAUUUUUUGCCCAACAUGACAAUUCUGGCUAUGAAAAUUAUGUUUAAACUGUGUAUGAUCUAUUUUAUGUGCUCUGGAAUUCUCGGGUGCCAA; value = 0.605
Sequence = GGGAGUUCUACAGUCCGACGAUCGAAGGUUCCAGCAGGUCCCCCACCCUCCCCUCCUCCUCCUACUUCUCCUCUUGACAGCGAGGACAGGAGGGGGACAAGGGGACACCUGGGCAGACCCGCCGGCUCUCCCCUGGAAUUCUCGGGUGCCAA; value = 0.281
Sequence = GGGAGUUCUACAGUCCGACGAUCUUAUUAAAACAAAAGGGUGUAUAGUGUUCACAAACUGUGAAAAUAGUGUAAGAACUGUACAUUGUGAGCUCUGGUUAUUUUUCUCUUGUACCAUAGAAAAAUGUAUAAAAUGGAAUUCUCGGGUGCCAA; value = 0.391
Sequence = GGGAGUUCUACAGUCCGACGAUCUCAUUCCUUCCAAGAUGAGAAAAACUUGCCGCCACCCCCCGACACUGAUGCCAGGGAGGUGGGAGGAAGAAGUGGGAAAUUUCCCUUCCCAGUACCCCCAAGAACGUCUGUGGAAUUCUCGGGUGCCAA; value = 0.227
Sequence = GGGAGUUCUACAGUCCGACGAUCAUUUAGUUUUUAGGUUUCUUUUUUUCUCUAUAACUUAUUCUUGCCUUCCCACCUCAAGCGUCUGUAUAACAUUUAGACUACACAUAAAGUUUAUGUGGUACAGACAUGCCUGGAAUUCUCGGGUGCCAA; value = 0.707
Sequence = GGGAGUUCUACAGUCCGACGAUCUGGAAGAUGAGCUCAAGGGGAGGACAGGCCUUGGGAGGGCAGGCGUUUGCAUUAAUAUCAAGGCAAAAAGCAUUCAUAGAUACAUGCAUCUGAUUUGGUAUUGUGAUUUAUGGAAUUCUCGGGUGCCAA; value = 1.52
Sequence = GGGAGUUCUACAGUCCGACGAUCGGACCUUAAAGUUACUGAGUUUAAACUACAAAUUGUAACAUCAUUACUGAACAUGUCCGCAUCAACCCUCUGAGAAUAACUUGGUCACUUUAUGAAGGGGCGUUUUUAAGUGGAAUUCUCGGGUGCCAA; value = 0.362
Sequence = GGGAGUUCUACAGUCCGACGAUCAAAUUCCCUGAGGCAAAACUCACUGGCCAAAUUUUGAGAGGGUAUAGAAAAUGACUUUAGAGAUGAGUGGUUUUGUGUAUGUGUCUGAUGAUAUUCAGUCUGAUGUUCCGUGGAAUUCUCGGGUGCCAA; value = 0.368

Sample 5 — target: CCNF, cyclin fold, Cln2 fusion (human); method: yeast growth competition, sequencing; matrix: yeast; notes: strong parent motif; reference: not given; direction: higher = stronger binding; measurement: normalised enrichment score
Starting sequence: PKN2 docking peptide (human); VSAVRKLDFSDTM
Substitution = L7G; value = -0.148
Substitution = R5V; value = 1.61
Substitution = S2C; value = 7.25
Substitution = R5S; value = -0.125
Substitution = L7K; value = 0.373
Substitution = V4I; value = 6.92
Substitution = F9I; value = 3.95
Substitution = D11P; value = 7.46
Substitution = T12A; value = 7.14
Substitution = A3E; value = 3.58
Substitution = T12P; value = 6.99
Substitution = R5I; value = 1.22
Substitution = D11E; value = 6.81
Substitution = A3H; value = 5.62
Substitution = D8L; value = 8.8
Substitution = V4N; value = 7.24
Substitution = R5M; value = 1.48
Substitution = A3R; value = 3.2
Substitution = D8V; value = 8.16
Substitution = S2G; value = 7.11
Substitution = D8N; value = 7.65
Substitution = T12N; value = 7.1
Substitution = L7F; value = 0.226
Substitution = F9C; value = 0.817
Substitution = D11A; value = 7.56

Some of these lines once more (sample 5):
Substitution = A3E; value = 3.58
Substitution = L7F; value = 0.226
Substitution = R5M; value = 1.48
Substitution = A3R; value = 3.2
Substitution = D8N; value = 7.65
Substitution = T12P; value = 6.99
